Assay results from different studies.
Numbers after ± are the reported error. Values after ≈ are worked out from the molar mass of the structure shown.
BCHE: Cholinesterase (BCHE, Homo sapiens, UniProt P06276)
Chain of UniProt P06276 (whole entry, looked up): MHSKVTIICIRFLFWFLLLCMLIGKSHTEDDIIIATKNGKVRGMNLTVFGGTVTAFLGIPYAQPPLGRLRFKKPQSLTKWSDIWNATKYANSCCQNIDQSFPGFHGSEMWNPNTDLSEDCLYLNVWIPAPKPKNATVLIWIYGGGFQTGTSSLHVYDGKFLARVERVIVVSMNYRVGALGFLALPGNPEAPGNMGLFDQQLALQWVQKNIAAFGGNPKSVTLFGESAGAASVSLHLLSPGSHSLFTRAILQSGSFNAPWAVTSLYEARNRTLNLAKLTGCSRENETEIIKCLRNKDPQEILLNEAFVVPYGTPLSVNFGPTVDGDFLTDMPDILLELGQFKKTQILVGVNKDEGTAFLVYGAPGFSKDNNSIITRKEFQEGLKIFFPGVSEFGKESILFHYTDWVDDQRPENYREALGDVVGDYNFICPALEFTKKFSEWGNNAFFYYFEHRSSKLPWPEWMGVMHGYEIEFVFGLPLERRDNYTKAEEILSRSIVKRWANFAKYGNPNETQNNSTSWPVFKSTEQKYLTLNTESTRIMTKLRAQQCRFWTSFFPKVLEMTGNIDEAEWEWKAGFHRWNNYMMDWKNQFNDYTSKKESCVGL
Chain of UniProt P15823 (whole entry, looked up): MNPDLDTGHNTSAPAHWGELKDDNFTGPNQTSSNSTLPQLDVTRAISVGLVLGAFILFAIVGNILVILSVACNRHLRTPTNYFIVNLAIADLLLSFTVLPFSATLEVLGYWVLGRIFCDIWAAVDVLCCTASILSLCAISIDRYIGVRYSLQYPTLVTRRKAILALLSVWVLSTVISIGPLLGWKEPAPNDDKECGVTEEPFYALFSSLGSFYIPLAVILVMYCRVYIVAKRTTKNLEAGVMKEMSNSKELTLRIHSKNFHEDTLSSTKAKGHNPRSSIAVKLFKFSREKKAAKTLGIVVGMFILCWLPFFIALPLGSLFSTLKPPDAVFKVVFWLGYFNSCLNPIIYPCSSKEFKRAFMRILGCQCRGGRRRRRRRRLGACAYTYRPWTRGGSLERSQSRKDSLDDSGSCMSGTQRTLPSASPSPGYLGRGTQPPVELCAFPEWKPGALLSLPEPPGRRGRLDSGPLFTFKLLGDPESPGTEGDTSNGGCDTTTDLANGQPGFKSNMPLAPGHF
Chain of UniProt Q08345 (whole entry, looked up): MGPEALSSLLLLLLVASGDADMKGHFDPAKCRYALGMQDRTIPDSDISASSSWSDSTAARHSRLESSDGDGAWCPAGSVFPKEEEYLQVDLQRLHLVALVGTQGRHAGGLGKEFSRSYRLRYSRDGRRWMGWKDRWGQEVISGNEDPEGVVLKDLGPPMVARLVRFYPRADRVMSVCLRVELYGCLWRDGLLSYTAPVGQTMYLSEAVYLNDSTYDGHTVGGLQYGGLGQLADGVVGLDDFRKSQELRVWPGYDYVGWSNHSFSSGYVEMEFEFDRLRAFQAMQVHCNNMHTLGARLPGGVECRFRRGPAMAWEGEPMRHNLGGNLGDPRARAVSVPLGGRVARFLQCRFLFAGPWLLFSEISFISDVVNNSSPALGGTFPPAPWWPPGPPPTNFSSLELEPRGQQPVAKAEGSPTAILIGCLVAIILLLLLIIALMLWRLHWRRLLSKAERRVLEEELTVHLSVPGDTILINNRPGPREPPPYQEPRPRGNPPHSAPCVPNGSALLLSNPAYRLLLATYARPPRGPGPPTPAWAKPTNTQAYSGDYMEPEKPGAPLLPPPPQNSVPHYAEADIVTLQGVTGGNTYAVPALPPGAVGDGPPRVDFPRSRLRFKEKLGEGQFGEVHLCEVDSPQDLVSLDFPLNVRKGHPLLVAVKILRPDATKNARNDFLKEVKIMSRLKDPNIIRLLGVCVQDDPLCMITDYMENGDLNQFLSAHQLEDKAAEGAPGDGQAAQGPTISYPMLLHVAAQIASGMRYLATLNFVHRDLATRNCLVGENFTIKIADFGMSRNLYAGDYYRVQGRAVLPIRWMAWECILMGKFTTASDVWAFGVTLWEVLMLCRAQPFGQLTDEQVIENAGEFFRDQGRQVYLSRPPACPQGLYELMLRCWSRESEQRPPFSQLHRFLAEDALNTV

Structure (SMILES) | target or system | test | test system | setting | scale | quantity | result
OC(Cn1cncn1)(Cn1cncn1)c1ccc(F)cc1F | Alternaria solani | broth microdilution |  |  |  | MLC | 32 ± 3 µg/mL (≈ 104 µM)
CCN(CC)CC#Cc1ccc2[nH]c(C)c(Cl)c(=O)c2c1 | Plasmodium falciparum | parasite growth, SYBR Green | 3D7 DHODH E182D | 72 h |  | EC50 | 1250 ± 170 nM
CC12CC3CC(C)(C1)CC(N)(C3)C2 | Plasmodium falciparum |  | W2 |  |  | IC50 | 1580 nM
CCc1nc2nc(C)cc(Nc3ccc4c(c3)OCCO4)n2n1 | Plasmodium falciparum | parasite growth, SYBR Green | 3D7 DHODH E182D | 72 h |  | EC50 | > 12500 nM
OC(c1cc(C(F)(F)F)nc2c(C(F)(F)F)cccc12)C1CCCCN1 (stereo not drawn) | Plasmodium falciparum |  | GB4 |  |  | IC50 | 7 nM
CC(C)C[C@H](NC(=O)C[C@H](O)[C@H](CC(C)C)NC(=O)[C@H](Cc1c[nH]cn1)NC(=O)CNC(=O)[C@@H](NC(=O)[C@H](C)NC(=O)[C@H](Cc1c[nH]c2ccccc12)NC(=O)[C@H](CCC(N)=O)NC(=O)[C@@H](Cc1ccccc1)NC(=O)CCNC(=O)CCSc1nnc(NCCC(=O)NCCC(=O)NCCCC[C@H](NC(=O)N[C@@H](CCC(=O)O)C(=O)O)C(=O)O)c2c1CCC1C(CC2)C1COC(=O)NCCNC(=O)CC[C@H](C(=O)O)N1CCN(CC(=O)O)CCN(CC(=O)O)CC1)C(C)C)C(N)=O (stereo partly drawn) [gallium-68 labelled] |  |  | athymic NMRI nude mouse, stomach | intravenous, 533 pmol, 2 h |  | tissue uptake | 0.11 %ID/g
O=C1C(O)=C([C@H]2CC[C@H](c3ccc(Cl)cc3)CC2)C(=O)c2ccccc21 | Plasmodium falciparum | parasite growth | Dd2 |  |  | EC50 | 0.284 ± 0.15 nM
Cc1ccc2[nH]c3c(c2c1)CCCC3NCCc1ccccc1 (stereo not drawn) | Streptococcus pneumoniae |  |  | concentration not given, 10% fetal bovine serum | baseline: without serum | MIC fold change | 4
CCCC1O[C@@H]2C[C@H]3[C@@H]4CCC5=CC(=O)C=C[C@]5(C)[C@H]4[C@@H](O)C[C@]3(C)[C@]2(C(=O)CO)O1 (stereo partly drawn) | Plasmodium falciparum |  | Dd2 |  |  | IC50 | 10000 nM
C[C@@H](O)[C@@H]1NC(=O)[C@H](Cc2ccccc2)NC(=O)[C@@H](Cc2ccccc2)NC(=O)[C@H]([C@@H](C)O)NC(=O)[C@@H](CCCN)NC(=O)[C@H](CCCN)NC(=O)[C@@H](CCCCN)NC1=O | Naegleria fowleri |  |  | trophozoites |  | IC90 | > 16 µg/mL
CO[C@H]1C[C@@H]2CC[C@@H](C)[C@@](O)(O2)C(=O)C(=O)N2CCCC[C@H]2C(=O)O[C@H]([C@H](C)C[C@@H]2CC[C@@H](OC(=O)NCCOCCOCCOCCOCCOCCOCCOCCOCCC(=O)N3CCc4cc(Cn5nc(-c6ccc7oc(N)nc7c6)c6c(N)ncnc65)ccc4C3)[C@H](OC)C2)C[C@@H](O)[C@H](C)/C=C(\C)[C@@H](O)[C@@H](OC)C(=O)[C@H](C)C[C@H](C)/C=C/C=C/C=C/1C |  | phase 1 dose escalation | advanced solid tumour patients | intravenous, 16 mg weekly, grade ≥3 |  | AEs causing dose modification | 100%
O=[N+]([O-])c1ccccc1Oc1ccc(-c2noc(-c3ccc(O)cc3)n2)cc1 | Clostridioides difficile | spore germination | ATCC 43255 | 45 µM, 1 h |  | inhibition | 14 to 39%
CC[C@H](C)[C@@H]1NC(=O)[C@@H]2CCCN2C(=O)[C@H](CC(C)C)NC(=O)[C@H](CC(C)C)NC(=O)CNC(=O)[C@@H](NC(=O)[C@@H](NC(=O)[C@H](CC(=O)O)NC(=O)CNC(=O)[C@@H](NC(=O)[C@H](C)NC(=O)CNC(=O)[C@H](CCCCN)NC(=O)[C@H](CC(C)C)NC(=O)[C@H](CC(C)C)NC(=O)[C@H](CCCCN)NC(=O)CNC(=O)[C@@H](NC(=O)[C@@H](N)CC(C)C)C(C)C)C(C)C)C(C)C)CSSC[C@@H](C(=O)O)NC1=O |  | RNA-seq, item: Stoml3 | mouse, traumatic brain injury model, frontal cortex and hippocampus | dose not given | baseline: TBI alone | log2 fold change | -2.69
COc1cc2c(cc1C(F)(F)F)N(C(=O)Nc1cc(F)cc(-c3cccnc3)c1)CC2 | Plasmodium falciparum |  | W2 |  |  | IC50 | 2510 nM
O=C(Nc1cccc(Cl)c1Cl)Nc1ccnc2ccccc12 | Plasmodium falciparum | parasite growth, SYBR Green | 3D7 DHODH E182D | 72 h |  | EC50 | 3480 ± 330 nM
O=C(NCCN1CCC2(CC1)C(=O)NCN2c1cccc(F)c1)c1ccc(F)c(F)c1 | BCHE | inhibitor, fluorometric |  |  |  | IC50 | 710 ± 570 nM
CC(C)[C@H]1NC(=O)[C@@H]([C@H](C)O)NC(=O)[C@H](CO)NC(=O)[C@@H](CCCNC(=N)N)NC(=O)CNC(=O)[C@H](Cc2ccccc2)NC(=O)[C@H]([C@@H](C)O)NC1=O | Naegleria fowleri |  |  | trophozoites |  | IC50 | > 16 µg/mL
COc1cc(N[C@H](C(=O)c2c[nH]c3ccc(OC(F)(F)F)cc23)c2ccc(Cl)cc2OC)cc(S(C)(=O)=O)c1 | dengue virus 2 | viral infection, luciferase reporter virus |  | 0.03 nM, 48 h |  | inhibition | 21.2%
COc1ccc(-n2ccnc2SCC(=O)Nc2cc(Cl)ccc2OC)c(OC)c1 | Plasmodium falciparum | parasite growth, SYBR Green |  | 72 h | baseline: 3D7-E182D over 3D7 | EC50 ratio | 5.2
CC(C)[C@@H]1NC(=O)[C@@H](CCCN)NC(=O)[C@H]([C@@H](C)O)NC(=O)[C@@H](CCCN)NC(=O)[C@H](Cc2ccccc2)NC(=O)[C@@H](C)NC(=O)[C@@H](C(C)C)NC(=O)[C@@H](C)NC(=O)[C@H](Cc2c[nH]c3ccccc23)NC(=O)[C@@H](Cc2c[nH]c3ccccc23)NC1=O | Naegleria fowleri |  |  | trophozoites |  | IC50 | > 16 µg/mL
CC(C)[C@@H]1NC(=O)[C@H](Cc2ccccc2)NC(=O)[C@@H]2NC(=O)[C@H](Cc3ccccc3)NC(=O)[C@@H]3CCCN3C(=O)CNC(=O)[C@H](Cc3ccccc3)NC(=O)[C@@H]3CNCCCC[C@@H](C(=O)O)NC(=O)[C@@H]4NC(=O)[C@H](CC(N)=O)NC(=O)CNC(=O)[C@H]([C@@H](O)C(=O)O)NC(=O)[C@H](CSC[C@@H](NC(=O)[C@H](CCC(N)=O)NC(=O)[C@H](CCCCNC(=O)c5ccc(NN)nc5)NC(=O)[C@@H](N)CS[C@H]4C)C(=O)N[C@@H](CS[C@H]2C)C(=O)N3)NC1=O [technetium-99m labelled] |  |  | rat 45 min ischemia, 2 h reperfusion, remote viable myocardium | 2 h | baseline: 2 min post-injection | fractional retention | 20.1 ± 4.8%
CCCCCCCCCC(=O)N[C@@H](Cc1c[nH]c2ccccc12)C(=O)N[C@H](CC(N)=O)C(=O)N[C@@H](CC(=O)O)C(=O)N[C@@H]1C(=O)NCC(=O)N[C@@H](CCCN)C(=O)N[C@@H](CC(=O)O)C(=O)N[C@H](C)C(=O)N[C@@H](CC(=O)O)C(=O)NCC(=O)N[C@H](CO)C(=O)N[C@@H]([C@H](C)CC(=O)O)C(=O)N[C@@H](CC(=O)c2ccccc2N)C(=O)O[C@@H]1C | Staphylococcus aureus |  |  |  |  | MIC90 | 0.5 µg/mL (≈ 0.309 µM)
O=C(NCCCNc1nc(Nc2cccc(CN3CCOCC3)c2)ncc1C1CC1)C1CCC1 | BCHE | inhibitor |  | with Triton |  | IC50 | 6010 ± 1460 nM
CC(C)[C@H]1NC(=O)[C@H](Cc2ccccc2)NC(=O)CNC(=O)[C@@H](Cc2ccccc2)NC(=O)[C@H](CCC(N)=O)NC(=O)[C@@H](CCCN)NC1=O | Acanthamoeba castellanii |  |  | trophozoites |  | IC90 | > 16 µg/mL
CCCN(CCC)[C@H]1CCc2c(F)ccc(O)c2C1 | Plasmodium falciparum |  | GB4 |  |  | IC50 | 398 nM
C[C@H]1NC(=O)[C@H](Cc2c[nH]c3ccccc23)NC(=O)[C@@H](Cc2ccccc2)NC(=O)[C@@H](CCCN)NC(=O)[C@H]([C@@H](C)O)NC(=O)[C@@H](CCCN)NC(=O)[C@H](Cc2c[nH]c3ccccc23)NC(=O)[C@@H](C)NC1=O | Naegleria fowleri |  |  | trophozoites |  | IC50 | > 16 µg/mL
C[C@H]1CN(c2n[nH]c3nc(N[C@H]4CC[C@H](NS(=O)(=O)CCC(F)(F)F)CC4)ncc23)CCO1 | DDR1 (Homo sapiens, UniProt Q08345) | inhibitor, Kinobeads competition profiling |  | 0.8 µM | baseline: vehicle | relative abundance | 1.02
O=C(Nc1cccnn1)N1CCC(=Cc2cccc(Oc3ccc(C(F)(F)F)cn3)c2)CC1 | Adra1b (Rattus norvegicus, UniProt P15823) | binding |  | 50 µM, together with: [3H]prazosin |  | inhibition | 32%
CC(C)[C@@H]1NC(=O)[C@@H](CCCCN)NC(=O)[C@H](CCCN)NC(=O)[C@@H](CC(=O)O)NC(=O)[C@H](C)NC(=O)[C@H](Cc2c[nH]c3ccccc23)NC(=O)[C@@H](Cc2c[nH]c3ccccc23)NC1=O | Naegleria fowleri |  |  | trophozoites |  | IC50 | > 16 µg/mL
CCOC(=O)N1CCC(=C2c3ccc(Cl)cc3CCc3cccnc32)CC1 | Plasmodium falciparum |  | W2 |  |  | IC50 | 5010 nM

For quick reference, copied from above:
Structure (SMILES) | target or system | test | test system | setting | scale | quantity | result
Cc1ccc2[nH]c3c(c2c1)CCCC3NCCc1ccccc1 (stereo not drawn) | Streptococcus pneumoniae |  |  | concentration not given, 10% fetal bovine serum | baseline: without serum | MIC fold change | 4
CCCCCCCCCC(=O)N[C@@H](Cc1c[nH]c2ccccc12)C(=O)N[C@H](CC(N)=O)C(=O)N[C@@H](CC(=O)O)C(=O)N[C@@H]1C(=O)NCC(=O)N[C@@H](CCCN)C(=O)N[C@@H](CC(=O)O)C(=O)N[C@H](C)C(=O)N[C@@H](CC(=O)O)C(=O)NCC(=O)N[C@H](CO)C(=O)N[C@@H]([C@H](C)CC(=O)O)C(=O)N[C@@H](CC(=O)c2ccccc2N)C(=O)O[C@@H]1C | Staphylococcus aureus |  |  |  |  | MIC90 | 0.5 µg/mL (≈ 0.309 µM)
CCCN(CCC)[C@H]1CCc2c(F)ccc(O)c2C1 | Plasmodium falciparum |  | GB4 |  |  | IC50 | 398 nM
CC[C@H](C)[C@@H]1NC(=O)[C@@H]2CCCN2C(=O)[C@H](CC(C)C)NC(=O)[C@H](CC(C)C)NC(=O)CNC(=O)[C@@H](NC(=O)[C@@H](NC(=O)[C@H](CC(=O)O)NC(=O)CNC(=O)[C@@H](NC(=O)[C@H](C)NC(=O)CNC(=O)[C@H](CCCCN)NC(=O)[C@H](CC(C)C)NC(=O)[C@H](CC(C)C)NC(=O)[C@H](CCCCN)NC(=O)CNC(=O)[C@@H](NC(=O)[C@@H](N)CC(C)C)C(C)C)C(C)C)C(C)C)CSSC[C@@H](C(=O)O)NC1=O |  | RNA-seq, item: Stoml3 | mouse, traumatic brain injury model, frontal cortex and hippocampus | dose not given | baseline: TBI alone | log2 fold change | -2.69
